# Measured values from different studies.
# Every numbered part comes from another study and shows a few of its results, in no order. Positions count from the first letter of the parent shown.

# Series 1
# Target: Fragile X messenger ribonucleoprotein 1, C-terminal low-complexity region (Fmr1, Mus musculus, UniProt P35922)
# Technique: RNA Bind-n-Seq
# Form: RNA
# Matrix: in vitro
# Tested at: 200 nM
# Notes: whole 134-nt RNA, ends assumed
# Added: 150 mM KCl
# Reference: input library
# Reading: higher = stronger binding
# All sequences stand within: GGGAGUUCUACAGUCCGACGAUC … UGGAAUUCUCGGGUGUCAAGG
Strand,log2 enrichment
AGUCCUGUGCUACACAUCGUAUGUACCGAAUCAAAUUUAAACCCCCCCAAAUUUAAAAAAGUAUUAUGUUACGCCGUUCGGAUCUGCACU,0.134
CCUGUGCUACACAUCGUAUGUACCGAAUCGGGGAAAAAGGGGUUUUUUUGGGGAAAGGGGAAAGUAUUAUGUUACGCCGUUCGGAUCUGC,0.369
CCUCAAGUCCUGUGCUACACAUCGUAUGUACCGAAUCGGAGGUUUUUGGAGGAAAGUAUUAUGUUACGCCGUUCGGAUCUGCACUUCCAG,0.248
UCCUGUGCUACACAUCGUAUGUACCGAAUCAAAUUUUUAAAUUUUUUUAAAUUUUUAAAAAAGUAUUAUGUUACGCCGUUCGGAUCUGCA,-0.594
ACCAUGCAGGAGGGCAUCUUUGGGAAGUGGGGCAAGGGGGGGAUAGGGAGGGGGGUAACACUUUGGGAACAGGUGGUCCCAGGUCGUUUC,0.798
CCUCAAGUCCUGUGCUACACAUCGUAUGUACCGAAUCGGCCGGCCGGGCCGGAAAGUAUUAUGUUACGCCGUUCGGAUCUGCACUUCCAG,-0.146

# Series 2
# Target: CCNE1, cyclin fold, Cln2 fusion (human)
# Technique: yeast growth competition, sequencing
# Matrix: yeast
# Notes: weak parent motif
# Reference: not given
# Reading: higher = stronger binding
# Starting sequence: ORC1 docking peptide (human); PRARKRLELGNLG
Variant,normalised enrichment score
PRARKRLELSNLG [G10S],-0.0995
PRAPKRLELGNLG [R4P],-0.0282
PAARKRLELGNLG [R2A],0.541
PRLRKRLELGNLG [A3L],-0.48
PRARKRLELINLG [G10I],0.712
PRARKRLELGALG [N11A],-0.211
PRARKRLELGNLR [G13R],0.408
CRARKRLELGNLG [P1C],1.56

# Series 3
# Target: Sal-like protein 4, full length isoform A (SALL4, Homo sapiens, UniProt Q9UJQ4, residues 1-1053)
# UniProt Q9UJQ4, sequence (whole entry, looked up): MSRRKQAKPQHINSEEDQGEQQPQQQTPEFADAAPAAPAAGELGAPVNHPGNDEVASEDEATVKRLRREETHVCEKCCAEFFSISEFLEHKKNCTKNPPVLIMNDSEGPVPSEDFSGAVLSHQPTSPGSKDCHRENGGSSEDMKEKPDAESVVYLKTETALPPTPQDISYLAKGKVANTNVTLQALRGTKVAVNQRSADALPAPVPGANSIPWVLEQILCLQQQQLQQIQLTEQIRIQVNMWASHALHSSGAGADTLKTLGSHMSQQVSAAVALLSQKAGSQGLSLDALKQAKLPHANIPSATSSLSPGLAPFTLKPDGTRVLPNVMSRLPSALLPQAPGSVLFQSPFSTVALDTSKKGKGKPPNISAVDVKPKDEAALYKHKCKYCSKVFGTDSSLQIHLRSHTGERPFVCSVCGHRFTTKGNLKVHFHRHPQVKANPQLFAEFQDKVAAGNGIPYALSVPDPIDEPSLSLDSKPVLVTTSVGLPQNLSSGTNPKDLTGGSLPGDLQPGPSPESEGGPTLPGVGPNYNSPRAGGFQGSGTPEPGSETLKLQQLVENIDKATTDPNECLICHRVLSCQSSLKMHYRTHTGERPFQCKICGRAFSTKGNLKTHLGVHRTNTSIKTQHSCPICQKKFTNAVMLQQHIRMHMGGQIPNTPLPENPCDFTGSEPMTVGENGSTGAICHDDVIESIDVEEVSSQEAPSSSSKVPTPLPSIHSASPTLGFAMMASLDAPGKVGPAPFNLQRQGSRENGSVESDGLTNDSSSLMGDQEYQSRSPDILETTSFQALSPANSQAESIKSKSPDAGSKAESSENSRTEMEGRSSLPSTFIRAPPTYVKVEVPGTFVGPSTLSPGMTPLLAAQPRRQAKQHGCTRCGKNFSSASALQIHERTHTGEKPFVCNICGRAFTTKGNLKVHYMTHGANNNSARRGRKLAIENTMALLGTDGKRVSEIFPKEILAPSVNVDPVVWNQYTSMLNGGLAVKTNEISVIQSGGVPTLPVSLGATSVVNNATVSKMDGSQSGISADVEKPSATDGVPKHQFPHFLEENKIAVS
# Technique: universal PBM
# Form: double-stranded DNA, one strand shown
# Matrix: in vitro
# Tested at: 600 nM
# Notes: 8-mer, flanks averaged, mean of replicates
# Reading: higher = stronger binding
Strand,E-score
GGCGGGTA,-0.218
GCTACAAA,0.165
ACCAAGGT,-0.0931
AGTATGGC,-0.132
AAATAGAC,0.137
GTTCTATA,0.242

# Mixed results
Molecule,target,test,system,setting,scale,endpoint,result
"PhoQ, residues 284 288 289 292 302 303 QWQEDG","PhoP, residues 12 14 15 18 19 AGCRL (Escherichia coli, UniProt P23836)","Sort-seq, measured: YFP reporter",E. coli,"PhoQ-PhoP variant library, added: 10 µM Mg2+","reference: high Mg2+ state, higher = stronger signaling",fold induction,1.58

# For quick reference, copied from above (series 2):
Variant,normalised enrichment score
PRARKRLELINLG [G10I],0.712
PRARKRLELGALG [N11A],-0.211
